Measurements from different studies.
Protocols differ between the studies behind these lines.
DPP4: Dipeptidyl peptidase 4 (DPP4, Homo sapiens, UniProt P27487)
Sequence of UniProt P27487 (whole entry, looked up): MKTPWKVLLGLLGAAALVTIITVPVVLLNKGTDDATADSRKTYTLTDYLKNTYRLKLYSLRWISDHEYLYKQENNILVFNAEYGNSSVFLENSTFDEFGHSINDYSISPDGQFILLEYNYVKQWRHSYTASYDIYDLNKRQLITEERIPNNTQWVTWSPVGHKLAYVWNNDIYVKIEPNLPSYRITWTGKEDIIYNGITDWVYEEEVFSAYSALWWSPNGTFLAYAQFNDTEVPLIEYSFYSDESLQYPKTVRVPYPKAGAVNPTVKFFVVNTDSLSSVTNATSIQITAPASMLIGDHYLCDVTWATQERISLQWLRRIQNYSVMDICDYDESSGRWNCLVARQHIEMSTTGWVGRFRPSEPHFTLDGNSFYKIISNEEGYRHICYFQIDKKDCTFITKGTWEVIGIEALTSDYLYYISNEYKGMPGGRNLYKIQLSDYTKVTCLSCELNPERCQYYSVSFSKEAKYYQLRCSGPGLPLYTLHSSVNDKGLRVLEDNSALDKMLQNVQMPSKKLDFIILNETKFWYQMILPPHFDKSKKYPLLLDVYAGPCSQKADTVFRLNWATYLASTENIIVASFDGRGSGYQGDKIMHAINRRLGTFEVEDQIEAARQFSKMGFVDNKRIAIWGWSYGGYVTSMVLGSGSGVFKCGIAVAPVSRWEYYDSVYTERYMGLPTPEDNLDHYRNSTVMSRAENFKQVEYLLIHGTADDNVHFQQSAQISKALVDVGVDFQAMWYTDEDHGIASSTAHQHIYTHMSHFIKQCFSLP
Sequence of UniProt P33261 (whole entry, looked up): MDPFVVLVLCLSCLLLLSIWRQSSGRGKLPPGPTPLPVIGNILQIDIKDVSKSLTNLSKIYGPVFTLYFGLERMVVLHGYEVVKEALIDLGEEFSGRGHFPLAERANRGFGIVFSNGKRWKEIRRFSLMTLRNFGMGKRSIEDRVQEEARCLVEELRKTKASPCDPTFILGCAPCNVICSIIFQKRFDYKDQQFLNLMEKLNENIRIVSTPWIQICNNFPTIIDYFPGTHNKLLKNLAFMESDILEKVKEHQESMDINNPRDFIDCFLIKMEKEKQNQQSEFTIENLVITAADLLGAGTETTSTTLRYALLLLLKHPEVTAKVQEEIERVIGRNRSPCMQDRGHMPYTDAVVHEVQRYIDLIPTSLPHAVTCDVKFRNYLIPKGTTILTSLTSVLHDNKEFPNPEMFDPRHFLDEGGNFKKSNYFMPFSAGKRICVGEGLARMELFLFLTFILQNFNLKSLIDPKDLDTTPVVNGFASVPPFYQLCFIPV
Sequence of UniProt Q86VL8 (whole entry, looked up): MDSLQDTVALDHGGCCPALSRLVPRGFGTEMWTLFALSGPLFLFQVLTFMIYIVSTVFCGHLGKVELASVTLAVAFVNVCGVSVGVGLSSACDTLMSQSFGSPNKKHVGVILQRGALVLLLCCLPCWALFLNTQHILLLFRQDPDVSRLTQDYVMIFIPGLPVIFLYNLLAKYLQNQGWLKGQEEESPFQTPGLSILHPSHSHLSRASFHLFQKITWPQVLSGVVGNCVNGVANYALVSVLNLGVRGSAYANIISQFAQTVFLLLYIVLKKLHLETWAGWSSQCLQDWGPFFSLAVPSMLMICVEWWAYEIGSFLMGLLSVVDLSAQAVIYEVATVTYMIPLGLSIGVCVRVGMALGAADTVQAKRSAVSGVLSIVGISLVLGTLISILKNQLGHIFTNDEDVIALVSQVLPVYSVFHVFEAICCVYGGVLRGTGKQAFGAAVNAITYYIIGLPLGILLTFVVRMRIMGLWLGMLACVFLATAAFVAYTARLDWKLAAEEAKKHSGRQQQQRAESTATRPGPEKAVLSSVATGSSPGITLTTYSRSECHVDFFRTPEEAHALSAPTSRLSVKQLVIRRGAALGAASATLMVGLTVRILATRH
Sequence of UniProt P11509 (whole entry, looked up): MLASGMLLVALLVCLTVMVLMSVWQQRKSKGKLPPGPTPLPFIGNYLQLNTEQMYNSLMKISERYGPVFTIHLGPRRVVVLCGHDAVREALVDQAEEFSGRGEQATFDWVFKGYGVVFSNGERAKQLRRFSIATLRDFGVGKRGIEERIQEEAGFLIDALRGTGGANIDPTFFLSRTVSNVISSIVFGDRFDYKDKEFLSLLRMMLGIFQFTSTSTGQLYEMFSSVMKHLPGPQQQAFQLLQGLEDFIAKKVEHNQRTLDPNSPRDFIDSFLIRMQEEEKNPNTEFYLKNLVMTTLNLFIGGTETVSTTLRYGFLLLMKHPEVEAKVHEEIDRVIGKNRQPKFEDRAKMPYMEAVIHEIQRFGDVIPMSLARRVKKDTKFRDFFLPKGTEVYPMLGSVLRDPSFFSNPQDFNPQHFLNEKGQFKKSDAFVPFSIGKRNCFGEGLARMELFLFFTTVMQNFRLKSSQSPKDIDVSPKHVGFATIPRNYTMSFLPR
Sequence of UniProt P08183 (whole entry, looked up): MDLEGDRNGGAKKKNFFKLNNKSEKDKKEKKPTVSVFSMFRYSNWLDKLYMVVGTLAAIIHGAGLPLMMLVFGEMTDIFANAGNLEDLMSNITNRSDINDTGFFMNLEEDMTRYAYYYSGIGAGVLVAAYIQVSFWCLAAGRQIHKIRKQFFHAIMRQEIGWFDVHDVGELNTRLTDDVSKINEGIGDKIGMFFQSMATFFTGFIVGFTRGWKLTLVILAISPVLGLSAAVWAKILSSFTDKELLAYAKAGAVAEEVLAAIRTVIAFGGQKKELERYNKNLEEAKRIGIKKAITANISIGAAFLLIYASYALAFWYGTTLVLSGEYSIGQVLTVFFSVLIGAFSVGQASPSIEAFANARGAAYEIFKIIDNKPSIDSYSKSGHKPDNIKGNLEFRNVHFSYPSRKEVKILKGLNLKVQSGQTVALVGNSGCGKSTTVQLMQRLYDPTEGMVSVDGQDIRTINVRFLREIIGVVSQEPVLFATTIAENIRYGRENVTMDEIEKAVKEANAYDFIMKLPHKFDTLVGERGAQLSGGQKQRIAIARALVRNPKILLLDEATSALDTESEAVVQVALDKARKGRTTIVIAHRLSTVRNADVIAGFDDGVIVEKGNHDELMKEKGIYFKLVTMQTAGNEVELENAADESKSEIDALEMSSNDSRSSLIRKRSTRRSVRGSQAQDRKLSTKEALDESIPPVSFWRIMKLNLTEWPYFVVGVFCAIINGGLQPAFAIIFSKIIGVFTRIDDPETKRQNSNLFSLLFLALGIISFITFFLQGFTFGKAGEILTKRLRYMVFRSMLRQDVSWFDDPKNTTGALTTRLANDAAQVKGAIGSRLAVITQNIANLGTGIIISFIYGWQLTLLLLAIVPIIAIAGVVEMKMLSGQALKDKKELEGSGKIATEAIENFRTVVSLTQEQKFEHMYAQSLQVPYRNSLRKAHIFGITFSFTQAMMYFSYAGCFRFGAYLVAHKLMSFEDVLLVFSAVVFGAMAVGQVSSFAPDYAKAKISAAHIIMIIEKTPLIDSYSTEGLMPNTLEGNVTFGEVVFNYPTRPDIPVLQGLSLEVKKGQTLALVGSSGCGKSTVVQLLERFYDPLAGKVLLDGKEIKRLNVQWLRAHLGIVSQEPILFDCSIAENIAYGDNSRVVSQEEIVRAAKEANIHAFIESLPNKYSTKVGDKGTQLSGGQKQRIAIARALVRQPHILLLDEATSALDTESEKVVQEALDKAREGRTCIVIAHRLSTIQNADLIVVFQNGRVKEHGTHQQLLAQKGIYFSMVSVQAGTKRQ

`C[C@@H](c1ccc2nccn2c1)n1nnc2ncc(-c3cn[nH]c3)nc21` has an IC50 of > 50 µM (human CYP3A4/5; inhibitor; pooled human liver microsomes; reversible inhibition, together with: midazolam substrate).
With `CC[C@H](C)[C@H](NC(=O)[C@H](Cc1ccccc1)NC(=O)[C@H](CCC(=O)O)NC(=O)[C@H](CCCCN)NC(=O)[C@H](C)NC(=O)[C@H](C)NC(=O)[C@H](CCC(N)=O)NC(=O)CNC(=O)[C@H](CCC(=O)O)NC(=O)[C@H](CC(C)C)NC(=O)[C@H](Cc1ccc(O)cc1)NC(=O)[C@H](CO)NC(=O)[C@H](CO)NC(=O)[C@@H](NC(=O)[C@H](CC(=O)O)NC(=O)[C@H](CO)NC(=O)[C@@H](NC(=O)[C@H](Cc1ccccc1)NC(=O)[C@@H](NC(=O)CNC(=O)[C@H](CCC(=O)O)NC(=O)C(C)(C)NC(=O)N(N)Cc1c[nH]cn1)[C@@H](C)O)[C@@H](C)O)C(C)C)C(=O)N[C@@H](C)C(=O)N[C@@H](Cc1c[nH]c2ccccc12)C(=O)N[C@@H](CC(C)C)C(=O)N[C@H](C(=O)N[C@@H](CCCNC(=N)N)C(=O)NCC(=O)N[C@@H](CCCNC(=N)N)C(=O)NCC(=O)O)C(C)C` the remaining peptide was 100% (DPP4; HPLC-UV; Tris-HCl; 0.1 mM, 1 h, pH 7.4, 37 °C, together with: DPP4 16 nM).
`CCN(CC)CCOc1ccc(-c2nnn(Cc3ccc(OC)cc3)c2N)cc1` gave an IC50 of > 50 µM (Cytochrome P450 2C8 (CYP2C8, Homo sapiens, UniProt P10632); inhibitor).
`CSCC[C@H](NC(=O)[C@@H](NC(=O)[C@H](CC(C)C)NC(=O)[C@@H](NC(=O)[C@H](Cc1c[nH]cn1)NC(=O)CCCCCNC(=O)C1CC2C=CC1C2)C(C)C)C(C)C)C(=O)N[C@@H](CO)C(=O)N[C@@H](C)C(=O)N[C@H](C(=O)NCC(=O)N[C@@H](CCC(=O)O)C(=O)N[C@@H](CCCNC(=N)N)C(=O)N[C@@H](CC(=O)O)C(=O)NCC(=O)N[C@@H](CO)C(N)=O)[C@@H](C)O` (stereo partly shown) gave a percent cleaved of 65% (pepsin; cleavage, substrate, HPLC; aqueous HCl; 200 µM, 1.667 h, pH 2, 37 °C, together with: pepsin 0.2 µM).
`CC[C@H](C)[C@H](NC(=O)[C@H](Cc1ccccc1)NC(=O)[C@H](CCC(=O)O)NC(=O)[C@H](CCCCN)NC(=O)[C@H](C)NC(=O)[C@H](C)NC(=O)[C@H](CCC(N)=O)NC(=O)CNC(=O)[C@H](CCC(=O)O)NC(=O)[C@H](CC(C)C)NC(=O)[C@H](Cc1ccc(O)cc1)NC(=O)[C@H](CO)NC(=O)[C@H](CO)NC(=O)[C@@H](NC(=O)[C@H](CC(=O)O)NC(=O)[C@H](CO)NC(=O)[C@@H](NC(=O)[C@H](Cc1ccccc1)NC(=O)[C@@H](NC(=O)CNC(=O)[C@H](CCC(=O)O)NC(=O)[C@H](C)NC(=O)[C@@H](N)Cc1c[nH]cn1)[C@@H](C)O)[C@@H](C)O)C(C)C)C(=O)N[C@@H](C)C(=O)N[C@@H](Cc1c[nH]c2ccccc12)C(=O)N[C@@H](CC(C)C)C(=O)N[C@H](C(=O)N[C@@H](CCCCN)C(=O)NCC(=O)N[C@@H](CCCNC(=N)N)C(=O)NCC(=O)N[C@@H](Cc1ccccc1)C(=O)N[C@@H](Cc1ccccc1)C(=O)NCC(=O)O)C(C)C` has a remaining peptide of ~86% (DPP-4 (recombinant); substrate, LC-MS; 500 µM, 12 h).
The IC50 of `C[C@@H](c1ccc2nccn2c1)n1nnc2nc(O)c(-c3cnn(C)c3)nc21` is reported as 37 µM (human CYP3A4/5; inhibitor; pooled human liver microsomes; reversible inhibition, together with: testosterone substrate).
With `CNC(=O)C1OC(n2cnc3c(NCc4cccc(I)c4)ncnc32)C(O)C1O` (stereo not shown) the inhibition was 85% (Multidrug and toxin extrusion protein 2 (SLC47A2, Homo sapiens, UniProt Q86VL8); transport, inhibitor; transiently transfected cells; 100 µM, 10 (unit not given), together with: thiamine).
The remaining peptide of `CC[C@H](C)[C@H](NC(=O)[C@H](Cc1ccccc1)NC(=O)[C@H](CCC(=O)O)NC(=O)[C@H](CCCCN)NC(=O)[C@H](C)NC(=O)[C@H](C)NC(=O)[C@H](CCC(N)=O)NC(=O)CNC(=O)[C@H](CCC(=O)O)NC(=O)[C@H](CC(C)C)NC(=O)[C@H](Cc1ccc(O)cc1)NC(=O)[C@H](CO)NC(=O)[C@H](CO)NC(=O)[C@@H](NC(=O)[C@H](CC(=O)O)NC(=O)[C@H](CO)NC(=O)[C@@H](NC(=O)[C@H](Cc1ccccc1)NC(=O)[C@@H](NC(=O)CNC(=O)N(CCC(=O)O)NC(=O)[C@H](C)NC(=O)N(N)Cc1c[nH]cn1)[C@@H](C)O)[C@@H](C)O)C(C)C)C(=O)N[C@@H](C)C(=O)N[C@@H](Cc1c[nH]c2ccccc12)C(=O)N[C@@H](CC(C)C)C(=O)N[C@H](C(=O)N[C@@H](CCCNC(=N)N)C(=O)NCC(=O)N[C@@H](CCCNC(=N)N)C(=O)NCC(=O)O)C(C)C` is reported as 100% (DPP4; HPLC-UV; Tris-HCl; 0.1 mM, 4 h, pH 7.4, 37 °C, together with: DPP4 16 nM).
With `CCCCCn1ccc(C(=O)NC(C)(C)c2ccc(CNC(C)=O)cc2)n1` the CYP induction was < 10% (CYP2B6 human; RT-qPCR, item: CYP2B6 mRNA; HepaRG; concentration not given; reference: positive control).
For `CN[C@@H]1[C@H](O)[C@H](NC)[C@H]2O[C@]3(O)[C@H](O[C@@H]2[C@H]1O)O[C@H](C)C[C@H]3NC(=O)Cc1cc(Cl)ccn1`, the inhibition was 6% (Cytochrome P450 2C19 (CYP2C19, Homo sapiens, UniProt P33261); 10 µM).
With `CC(=O)NCCCC[C@@H]1NC(=O)[C@H](Cc2c[nH]c3c(C)cccc23)NC(=O)[C@H]([C@@H](C)O)NC(=O)[C@H](CC(N)=O)NC(=O)[C@@H](NC(C)=O)C(C)(C)SSC(C)(C)[C@@H](C(=O)N[C@@H](Cc2ccc(OCCN)cc2)C(=O)N[C@@H](Cc2ccc3ccccc3c2)C(=O)NC2(C(=O)N[C@@H](CCC(=O)O)C(=O)N[C@@H](CC(N)=O)C(=O)N[C@@H](Cc3cccnc3)C(=O)N(C)CC(N)=O)CCOCC2)NC1=O` the efflux ratio was 16.2 (ATP-dependent translocase ABCB1 (ABCB1, Homo sapiens, UniProt P08183); transport, inhibitor; LLC-PK1 expressing MDR1; 10 µM, 90 min, together with: [3H]digoxin).
With `Cc1cc(-c2ccc3ccccc3c2)nnc1NCCN1CCN(C)CC1` the remaining compound was 100% (Cytochrome P450 2A6 (CYP2A6, Homo sapiens, UniProt P11509); substrate; recombinant enzyme; 1000 nM, 30 min).
`CNC(=O)C1CCCN(C(=O)C2CC3CCC2N3C(=O)[C@@H]2C[C@@H](O)CN2C(=O)NCc2cccc(Cl)c2F)C1` (mixture of isomers) gave a remaining activity of 104% (CYP3A4 (human); inhibitor, time-dependent inhibition; 5.56 µM, preincubated with NADPH, together with: midazolam substrate; reference: negative control).
